Assay results pooled from the literature.
Each line is one published result; not all experiments were run side by side. ± marks the error that the study gave.
Histone chaperone ASF1A: Histone chaperone ASF1A (Homo sapiens, UniProt Q9Y294)
UniProt Q9Y294, sequence (whole entry, looked up): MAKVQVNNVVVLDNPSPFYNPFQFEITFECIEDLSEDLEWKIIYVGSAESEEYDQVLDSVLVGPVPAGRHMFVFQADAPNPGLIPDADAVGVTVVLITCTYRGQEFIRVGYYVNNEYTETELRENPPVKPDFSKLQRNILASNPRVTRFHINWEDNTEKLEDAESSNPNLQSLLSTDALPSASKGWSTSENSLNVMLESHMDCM
Complement C3: Complement C3 (Homo sapiens, UniProt P01024)
UniProt P01024, sequence (whole entry, looked up): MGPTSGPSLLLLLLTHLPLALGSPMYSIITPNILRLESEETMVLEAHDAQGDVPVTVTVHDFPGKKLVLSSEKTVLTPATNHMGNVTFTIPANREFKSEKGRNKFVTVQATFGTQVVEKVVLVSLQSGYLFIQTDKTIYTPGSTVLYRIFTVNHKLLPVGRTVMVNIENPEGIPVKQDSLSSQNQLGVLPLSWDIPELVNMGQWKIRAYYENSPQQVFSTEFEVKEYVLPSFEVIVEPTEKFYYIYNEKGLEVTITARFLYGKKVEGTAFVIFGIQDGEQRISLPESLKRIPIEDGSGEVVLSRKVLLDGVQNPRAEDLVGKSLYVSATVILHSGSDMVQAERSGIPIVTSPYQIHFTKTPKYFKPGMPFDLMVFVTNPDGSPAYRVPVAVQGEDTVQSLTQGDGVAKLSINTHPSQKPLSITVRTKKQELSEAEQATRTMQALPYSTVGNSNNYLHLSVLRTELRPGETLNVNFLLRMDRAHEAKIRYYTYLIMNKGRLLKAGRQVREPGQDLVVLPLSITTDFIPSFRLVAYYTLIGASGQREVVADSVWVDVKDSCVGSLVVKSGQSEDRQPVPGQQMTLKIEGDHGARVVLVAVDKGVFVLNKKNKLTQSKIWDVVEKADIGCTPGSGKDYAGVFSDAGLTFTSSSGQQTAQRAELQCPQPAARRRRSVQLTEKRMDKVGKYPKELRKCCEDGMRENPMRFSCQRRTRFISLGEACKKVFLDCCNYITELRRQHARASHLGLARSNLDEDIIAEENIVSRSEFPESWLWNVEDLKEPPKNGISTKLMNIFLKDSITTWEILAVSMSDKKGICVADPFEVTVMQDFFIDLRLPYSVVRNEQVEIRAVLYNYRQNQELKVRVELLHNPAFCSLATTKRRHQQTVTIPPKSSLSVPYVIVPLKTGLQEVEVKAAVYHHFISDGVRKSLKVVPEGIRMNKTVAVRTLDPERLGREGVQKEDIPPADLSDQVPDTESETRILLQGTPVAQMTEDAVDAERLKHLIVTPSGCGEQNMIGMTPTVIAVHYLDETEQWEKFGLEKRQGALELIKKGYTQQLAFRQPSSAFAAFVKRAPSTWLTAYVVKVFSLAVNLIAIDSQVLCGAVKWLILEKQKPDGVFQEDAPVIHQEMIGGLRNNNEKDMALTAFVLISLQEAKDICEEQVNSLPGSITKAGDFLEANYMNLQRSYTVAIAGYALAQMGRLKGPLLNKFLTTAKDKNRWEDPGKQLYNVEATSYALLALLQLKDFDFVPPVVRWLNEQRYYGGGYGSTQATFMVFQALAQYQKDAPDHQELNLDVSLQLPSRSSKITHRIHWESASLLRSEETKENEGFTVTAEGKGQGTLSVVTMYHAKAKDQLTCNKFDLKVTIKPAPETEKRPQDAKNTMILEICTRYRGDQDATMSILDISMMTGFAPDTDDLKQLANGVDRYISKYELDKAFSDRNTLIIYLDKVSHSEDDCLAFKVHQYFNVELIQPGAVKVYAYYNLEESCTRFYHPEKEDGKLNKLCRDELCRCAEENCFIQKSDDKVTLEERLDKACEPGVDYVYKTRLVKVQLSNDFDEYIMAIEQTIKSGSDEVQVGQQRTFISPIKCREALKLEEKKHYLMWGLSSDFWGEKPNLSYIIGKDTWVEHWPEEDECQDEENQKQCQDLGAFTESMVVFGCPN
UniProt P21397, sequence (whole entry, looked up): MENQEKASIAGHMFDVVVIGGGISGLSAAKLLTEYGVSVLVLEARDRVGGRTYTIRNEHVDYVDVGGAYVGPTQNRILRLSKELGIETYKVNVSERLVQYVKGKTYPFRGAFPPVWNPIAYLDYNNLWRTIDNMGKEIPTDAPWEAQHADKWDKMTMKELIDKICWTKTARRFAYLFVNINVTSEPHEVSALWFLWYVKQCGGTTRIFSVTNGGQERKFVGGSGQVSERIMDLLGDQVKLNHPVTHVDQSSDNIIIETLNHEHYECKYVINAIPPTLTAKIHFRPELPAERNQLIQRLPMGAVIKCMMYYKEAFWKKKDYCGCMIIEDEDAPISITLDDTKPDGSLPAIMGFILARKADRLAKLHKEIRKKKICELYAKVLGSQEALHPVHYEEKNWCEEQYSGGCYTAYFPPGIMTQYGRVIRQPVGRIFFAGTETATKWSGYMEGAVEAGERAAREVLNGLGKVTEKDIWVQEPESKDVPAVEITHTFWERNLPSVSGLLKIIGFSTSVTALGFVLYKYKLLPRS
UniProt P16662, sequence (whole entry, looked up): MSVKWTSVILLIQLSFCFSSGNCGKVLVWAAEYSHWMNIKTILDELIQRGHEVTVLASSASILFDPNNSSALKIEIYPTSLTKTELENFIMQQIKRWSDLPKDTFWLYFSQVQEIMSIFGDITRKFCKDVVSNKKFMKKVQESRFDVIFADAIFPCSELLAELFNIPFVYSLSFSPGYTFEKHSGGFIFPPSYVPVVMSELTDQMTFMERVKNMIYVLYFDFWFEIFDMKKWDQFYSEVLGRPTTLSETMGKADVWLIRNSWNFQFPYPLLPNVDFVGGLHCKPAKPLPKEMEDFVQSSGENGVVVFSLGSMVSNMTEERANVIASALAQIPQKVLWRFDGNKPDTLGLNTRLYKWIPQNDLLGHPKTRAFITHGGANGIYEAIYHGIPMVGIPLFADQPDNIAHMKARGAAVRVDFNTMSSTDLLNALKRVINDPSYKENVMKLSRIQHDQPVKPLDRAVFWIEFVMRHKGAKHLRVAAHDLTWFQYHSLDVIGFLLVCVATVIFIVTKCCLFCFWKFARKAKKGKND
UniProt P62993, sequence (whole entry, looked up): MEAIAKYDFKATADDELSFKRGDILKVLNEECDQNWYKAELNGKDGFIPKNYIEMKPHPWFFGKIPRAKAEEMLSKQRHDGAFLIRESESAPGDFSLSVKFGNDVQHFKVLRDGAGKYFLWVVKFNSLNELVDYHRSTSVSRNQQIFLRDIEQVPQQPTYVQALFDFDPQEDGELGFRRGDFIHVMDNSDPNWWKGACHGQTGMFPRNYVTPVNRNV
UniProt Q8NB78, sequence (whole entry, looked up): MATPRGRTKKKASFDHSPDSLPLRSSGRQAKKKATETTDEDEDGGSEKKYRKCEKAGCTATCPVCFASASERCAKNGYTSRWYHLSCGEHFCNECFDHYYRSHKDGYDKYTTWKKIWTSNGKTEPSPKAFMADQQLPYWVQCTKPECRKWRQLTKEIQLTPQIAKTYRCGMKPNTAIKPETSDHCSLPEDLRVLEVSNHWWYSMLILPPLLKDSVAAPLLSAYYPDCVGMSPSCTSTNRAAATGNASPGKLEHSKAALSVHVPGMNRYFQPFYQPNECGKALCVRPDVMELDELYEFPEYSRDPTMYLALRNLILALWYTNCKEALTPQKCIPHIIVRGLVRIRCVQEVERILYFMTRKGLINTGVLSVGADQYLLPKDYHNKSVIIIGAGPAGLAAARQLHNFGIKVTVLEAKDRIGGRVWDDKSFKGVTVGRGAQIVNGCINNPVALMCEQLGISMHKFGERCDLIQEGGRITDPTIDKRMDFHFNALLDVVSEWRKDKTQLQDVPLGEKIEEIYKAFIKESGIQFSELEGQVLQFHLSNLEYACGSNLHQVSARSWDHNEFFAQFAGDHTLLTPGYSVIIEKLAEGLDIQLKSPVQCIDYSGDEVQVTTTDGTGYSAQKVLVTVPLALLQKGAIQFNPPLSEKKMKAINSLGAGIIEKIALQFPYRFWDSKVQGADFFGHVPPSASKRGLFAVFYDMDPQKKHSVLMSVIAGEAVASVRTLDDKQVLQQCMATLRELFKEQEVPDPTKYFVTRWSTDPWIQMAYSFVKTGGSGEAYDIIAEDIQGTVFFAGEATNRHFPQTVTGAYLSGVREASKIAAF
UniProt Q04609, sequence (whole entry, looked up): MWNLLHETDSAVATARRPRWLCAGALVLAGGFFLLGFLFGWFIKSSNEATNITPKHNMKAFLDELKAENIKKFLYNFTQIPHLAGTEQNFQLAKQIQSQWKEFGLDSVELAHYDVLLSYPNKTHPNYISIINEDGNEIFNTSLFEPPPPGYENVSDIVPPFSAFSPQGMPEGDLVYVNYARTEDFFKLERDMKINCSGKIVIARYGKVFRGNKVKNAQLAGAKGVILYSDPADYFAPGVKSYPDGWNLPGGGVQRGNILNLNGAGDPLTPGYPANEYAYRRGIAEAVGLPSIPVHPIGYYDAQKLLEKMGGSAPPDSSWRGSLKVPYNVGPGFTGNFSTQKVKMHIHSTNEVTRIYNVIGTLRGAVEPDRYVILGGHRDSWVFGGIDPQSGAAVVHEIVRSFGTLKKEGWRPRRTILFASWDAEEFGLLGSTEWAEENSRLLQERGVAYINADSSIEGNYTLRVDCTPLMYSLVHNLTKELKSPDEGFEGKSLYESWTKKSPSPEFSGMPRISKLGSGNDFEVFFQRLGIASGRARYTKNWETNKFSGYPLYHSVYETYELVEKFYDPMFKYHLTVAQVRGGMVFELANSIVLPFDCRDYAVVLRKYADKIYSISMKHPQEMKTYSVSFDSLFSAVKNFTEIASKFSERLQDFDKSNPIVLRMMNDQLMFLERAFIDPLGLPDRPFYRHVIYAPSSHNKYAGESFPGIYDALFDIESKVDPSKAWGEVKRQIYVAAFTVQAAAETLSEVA
UniProt P08246, sequence (whole entry, looked up): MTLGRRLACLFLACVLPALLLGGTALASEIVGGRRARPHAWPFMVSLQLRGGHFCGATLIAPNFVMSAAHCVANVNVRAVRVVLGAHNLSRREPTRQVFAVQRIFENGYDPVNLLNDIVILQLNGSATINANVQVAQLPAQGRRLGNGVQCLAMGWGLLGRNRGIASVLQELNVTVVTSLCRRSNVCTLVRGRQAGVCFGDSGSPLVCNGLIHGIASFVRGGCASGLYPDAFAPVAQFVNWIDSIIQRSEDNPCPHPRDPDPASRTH

SMILES = CC1=C(/C=C/C(C)=C/C=C/C(C)=C/C=O)C(C)(C)CCC1; target = CNGA1 (Bos taurus, UniProt Q00194); assay = ion current, inhibitor, patch clamp; conditions = 200 nM, holding potential +50 mV, added: cGMP 2 mM; quantity = fast time constant of inhibition; value = 206 s
SMILES = CCOC(=O)C1=CN([C@@H]2O[C@H](CO)[C@@H](O)[C@H]2O)C=CC1; target = SIRT5 (Homo sapiens, UniProt Q9NXA8); assay = isothermal titration calorimetry; conditions = concentration not given, without NAD+; quantity = −TΔS of binding; value = negative
SMILES = COc1ccc(CCCN[C@@H]2CCC[C@H]2CN[C@H]2CCC[C@@H]2CNCCCCN[C@@H]2CCC[C@H]2CN)cc1; target = KDM1B (Homo sapiens, UniProt Q8NB78); assay = peroxidase-coupled; scale = reference: Ki for KDM1B over Ki for LSD1; quantity = selectivity ratio; value = 6.1
SMILES = O=C(Nc1ccc(C(=O)Nc2ccc(C(=O)Nc3ccc(S(=O)(=O)O)c4cc(S(=O)(=O)O)cc(S(=O)(=O)O)c34)cc2)cc1)Nc1ccc(C(=O)Nc2ccc(C(=O)Nc3ccc(S(=O)(=O)O)c4cc(S(=O)(=O)O)cc(S(=O)(=O)O)c34)cc2)cc1; target = Neutrophil elastase (ELANE, Homo sapiens, UniProt P08246); assay = substrate S-1384 hydrolysis; conditions = pH 7.4, 37 °C, enzyme 300 nM; quantity = Vmax; value = 21.5 ± 1.72 mAU/min
SMILES = CC[C@H](C)[C@H](NC(=O)[C@H](CCCNC(=N)N)NC(=O)[C@H](CCCNC(=N)N)NC(=O)[C@H](C)NC(=O)[C@H](CC(C)C)NC(=O)[C@H](CCCNC(=N)N)NC(=O)[C@H](C)NC(=O)[C@H](Cc1c[nH]c2ccccc12)NC(=O)[C@H](CCCCN)NC(=O)[C@H](CCC(=O)O)NC(=O)[C@H](CCC(=O)O)NC(=O)[C@@H](NC(=O)[C@H](CO)NC(=O)[C@H](C)NC(C)=O)[C@@H](C)O)C(=O)N[C@@H](C)C(=O)NCC(N)=O; target = Histone chaperone ASF1A; assay = isothermal titration calorimetry; conditions = concentration not given, pH 7.5, 20 °C; quantity = binding enthalpy; value = -11.7 ± 0.4 kcal/mol
SMILES = C=C1C(=O)O[C@@H]2[C@H]3C(CO)=CC(=O)C3=C(C)C[C@H](O)[C@@H]12; target = MAL12 (Saccharomyces cerevisiae S288c, UniProt P53341); assay = fluorescence quenching; conditions = concentration not given, 298 K; quantity = number of binding sites; value = 1.04
SMILES = CC[C@H](C)[C@H](NC(=O)[C@H](CCCNC(=N)N)NC(=O)NC[C@H](CCC(N)=O)NC(=O)NC[C@H](CC(C)C)NC(=O)NC[C@H](CCCNC(=N)N)NC(=O)NC[C@H](Cc1ccc2ccccc2c1)NC(=O)[C@H](CCCCN)NC(=O)[C@H](CCC(=O)O)NC(=O)[C@H](CCC(=O)O)NC(=O)[C@@H](NC(=O)[C@H](CO)NC(=O)[C@H](C)NC(C)=O)[C@@H](C)O)C(=O)N[C@@H](C)C(N)=O; target = Histone chaperone ASF1A; assay = isothermal titration calorimetry; conditions = concentration not given, pH 7.5, 20 °C; quantity = binding enthalpy; value = -1.9 ± 0.4 kcal/mol
SMILES = Clc1ccc(-c2n[nH]cc2CN2CCN(C34CC(C3)C4)CC2)cc1; target = HTR2B (Homo sapiens, UniProt P41595); assay = β-arrestin recruitment, agonist; quantity = Emax; value = 103%
SMILES = CCCCCC(O)/C=C/C=O (stereo not drawn); target = MAP3K20 (Homo sapiens, UniProt Q9NYL2); assay = inhibitor; conditions = 10 or 100 µM, added: myelin basic protein; quantity = kinase activity; value = inhibited
SMILES = CC[C@H](C)[C@H](NC(C)=O)C(=O)N[C@H]1CSSC[C@@H](C(=O)N(C)[C@H](C(N)=O)[C@@H](C)CC)NC(=O)[C@H](CCCNC(=N)N)NC(=O)[C@H](Cc2c[nH]cn2)NC(=O)[C@H](C)NC(=O)CN(C)C(=O)[C@H](Cc2c[nH]c3ccccc23)NC(=O)[C@H](CC(=O)O)NC(=O)[C@H](CCC(N)=O)NC(=O)[C@H](Cc2cn(C)c3ccccc23)NC(=O)[C@H](C(C)C)NC1=O; target = Complement C3; assay = ITC; conditions = concentration not given; quantity = ΔG of binding; value = -11.4 kcal/mol
SMILES = O=C(COc1ccccc1)N[C@@H](Cc1cn(CCNC(=O)c2ccc(S[C@@H]3O[C@H](CO)[C@H](O)[C@H](O)[C@H]3O)cc2)nn1)C(=O)NCCO; target = lecA (Pseudomonas aeruginosa, UniProt Q05097); assay = binding, isothermal titration calorimetry; conditions = 25 °C; quantity = −TΔS; value = 4.13 ± 0.359 kcal/mol
SMILES = O=C([O-])CN1CCN(CC(=O)[O-])CCN(C(CCC(=O)NCCCCCN(CCCC[C@H](NC(=O)N[C@@H](CCC(=O)O)C(=O)O)C(=O)O)C(=O)c2ccc(I)cc2)C(=O)O)CCN(CC(=O)[O-])CC1.[68Ga+3] (stereo partly drawn); target = FOLH1 (Homo sapiens, UniProt Q04609); assay = PET/CT; test system = prostate cancer patients, primary prostate cancer lesions; scale = reference: primary lesions over kidneys; quantity = tumour-to-normal tissue ratio; value = 1.11 ± 0.95
SMILES = [11CH3]N1CCN(CCCOc2ccc(=O)n(-c3ccc(Cl)c(Cl)c3)n2)CC1; target = Sigmar1 (Mus musculus, UniProt O55242); assay = radiotracer; test system = mouse BALB/c, brain; conditions = dose not given, added: self-blocking 2.88 mg/kg; quantity = non-specific binding share; value = ~40%
SMILES = CC(C)C[C@H](NC(=O)[C@H](CC(N)=O)NC(=O)[C@H](CCCNC(=N)N)NC(=O)[C@H](CC(=O)O)NC(=O)[C@@H](NC(=O)[C@@H]1CCCN1C(=O)[C@H](Cc1ccccc1)NC(=O)[C@@H]1CCCN1)C(C)C)C(=O)N[C@@H](CCCCN)C(=O)N1CCC[C@H]1C(=O)N[C@@H](CC(=O)O)C(=O)N[C@@H](CCCNC(=N)N)C(=O)O; target = Growth factor receptor-bound protein 2, C-terminal SH3 domain (GRB2, Homo sapiens, UniProt P62993); assay = SH3 domain binding, isothermal titration calorimetry; conditions = concentration not given, C-terminal SH3 domain; quantity = binding; value = no binding
SMILES = CC[C@@H]1NC(=O)CNC(=O)[C@H](Cc2c[nH]c3ccccc23)NC(=O)[C@H](CC(=O)O)NC(=O)[C@H](CCC(N)=O)NC(=O)[C@H](Cc2c[nH]c3ccccc23)NC(=O)[C@H](C(C)C)NC(=O)[C@@H](NC(=O)[C@@H](NC(C)=O)[C@@H](C)CC)CSSC[C@@H](C(=O)N[C@H](C(N)=O)[C@@H](C)O)NC(=O)[C@H](CCCNC(=N)N)NC(=O)[C@H](Cc2c[nH]cn2)NC1=O; target = Complement C3, C3b fragment (Homo sapiens, UniProt P01024); assay = SPR; conditions = pH 7.4, 25 °C; quantity = koff; value = 0.141 ± 0.021 s⁻¹
SMILES = N=C(N)NCCC[C@H](NC(=O)[C@@H]1CCCN1C(=O)[C@H](CC(N)=O)NC(=O)[C@H](CCCNC(=N)N)NC(=O)[C@@H]1CCCN1C(=O)[C@H](CCCCN)NC(=O)[C@H](CCCCN)NC(=O)[C@H](CCC(N)=O)NC(=O)[C@H](CC(=O)O)NC(=O)[C@@H](N)Cc1c[nH]c2ccccc12)C(=O)O; target = Neuropilin-1 (NRP1, Homo sapiens, UniProt O14786); assay = binding, ITC; conditions = pH 7.4, 30 °C; quantity = TΔS; value = -10 kcal/mol
SMILES = COc1ccc(S(=O)(=O)N2CCN(CC(=O)Nc3ccc(OC)cc3OC)CC2)cc1; target = GRM4 (Homo sapiens, UniProt Q14833); assay = calcium mobilization, positive allosteric modulator; test system = CHO cells expressing Gqi5; conditions = added: glutamate EC20; quantity = EC50; value = inactive
SMILES = O=C1Nc2ccc(Cl)cc2/C1=N/N=C/c1ccc(OCc2ccccc2)cc1; target = MAOA (Homo sapiens, UniProt P21397); assay = enzyme activity, inhibitor; conditions = 10 µM; quantity = remaining activity; value = 84.7%
SMILES = CC[C@H](C)[C@@H]1NC(=O)[C@H](CC(N)=O)NC(=O)[C@H](Cc2ccc(O)cc2)NC(=O)[C@H](Cc2c[nH]c3ccccc23)NC(=O)[C@H](C)NC(=O)[C@@H](N)CSSC[C@@H]2NC(=O)[C@@H](CSC[C@@H](C(=O)N[C@H]3C(=O)N[C@@H](CC(C)C)C(=O)N[C@H]4C(=O)N[C@@H](C(C)C)C(=O)N[C@@H](CCC(=O)O)C(=O)N[C@@H](CS[C@H]3C)C(=O)N[C@@H](CCSC)C(=O)N3CCC[C@H]3C(=O)N[C@@H](CO)C(=O)N[C@H](C(=O)N[C@@H](CC(N)=O)C(=O)O)CS[C@H]4C)NC(=O)[C@H](Cc3ccc(O)cc3)NC(=O)[C@H](C)NC(=O)CNC(=O)[C@H](CCCCN)NC(=O)[C@H](CC(N)=O)NC(=O)CNC(=O)[C@H](CC(C)C)NC(=O)[C@H](CCCNC(=N)N)NC2=O)NC1=O; target = PBP1b; assay = transglycosylation; conditions = 8 µM; quantity = lipid II level fully inhibited; value = 4 µM
SMILES = CCOc1ccc(C[C@@H]2NC(=O)[C@H](C(C)C)NC(=O)[C@@H](NC(=O)[C@@H](NC(C)=O)[C@@H](C)CC)CSSC[C@@H](C(=O)N[C@H](C(N)=O)[C@@H](C)O)NC(=O)[C@H](CCCNC(=N)N)NC(=O)[C@H](Cc3c[nH]cn3)NC(=O)[C@H](C)NC(=O)CNC(=O)[C@H](Cc3c[nH]c4ccccc34)NC(=O)[C@H](CC(=O)O)NC(=O)[C@H](CCC(N)=O)NC2=O)cc1; target = Complement C3; assay = isothermal titration calorimetry; scale = reference: 1-methyltryptophan reference; quantity = -TΔΔS; value = -0.3 kcal/mol
SMILES = CC[C@H](C)[C@H](NC(=O)[C@H](CCCNC(=N)N)NC(=O)[C@H](CCCCN)NC(=O)[C@@H](NC(=O)[C@H](C)NC(=O)[C@H](CCCNC(=N)N)NC(=O)[C@H](CCC(N)=O)NC(=O)[C@H](CO)NC(=O)[C@H](CCCCN)NC(=O)[C@H](CC(N)=O)NC(=O)[C@@H](N)CCCNC(=N)N)[C@@H](C)O)C(=O)N[C@@H](CO)C(=O)N[C@@H](Cc1c[nH]cn1)C(=O)N[C@@H](CCSC)C(=O)N1CCC[C@H]1C(=O)N[C@@H](CO)C(=O)N[C@@H](CCCNC(=N)N)C(=O)N1CCC[C@H]1C(=O)N[C@@H](CCC(=O)O)C(=O)N[C@@H](CC(C)C)C(=O)N[C@@H](CO)C(=O)N[C@@H](C)C(=O)N[C@H](C(=O)N[C@@H](C)C(=O)N[C@H](C(=O)N[C@@H](CC(=O)O)C(=O)N[C@@H](CC(C)C)C(=O)N[C@@H](CCCNC(=N)N)C(=O)N[C@@H](CCCCN)C(=O)N[C@@H](CC(=O)O)C(=O)N[C@@H](CCCCN)C(=O)N[C@@H](C)C(=O)N[C@@H](CCCCN)C(=O)N[C@@H](COP(=O)(O)O)C(=O)N[C@@H](CS)C(=O)OC)[C@@H](C)O)C(C)C; target = YWHAZ (Homo sapiens, UniProt P63104); assay = binding, stopped-flow fluorescence polarization; quantity = kon; value = 2.96e+07 M⁻¹ s⁻¹
SMILES = Nc1ncnc2c1ncn2C1CC(O)C(COP(=O)(O)OP(=O)(O)C(F)P(=O)(O)O)O1 (mixture of isomers); target = DNA polymerase eta (POLH, Homo sapiens, UniProt Q9Y253); assay = dNTP incorporation, single-turnover kinetics; conditions = W sequence, A·T pair; scale = reference: non-enzymatic LFER line; quantity = delta effective pKa4; value = -0.3 pK units
SMILES = O=C(O)[C@H]1O[C@@H](O[C@H]2C=Cc3c(cc4ccc5cccc6c7ccccc7c3c4c56)[C@@H]2O)[C@H](O)[C@@H](O)[C@@H]1O; target = UGT2B7 (Homo sapiens, UniProt P16662); assay = glucuronidation, substrate; test system = UGT-expressing HEK293 homogenate; conditions = normalized to UGT expression; quantity = kcat/Km; value = < 0.0167 M⁻¹ s⁻¹
SMILES = O=C(c1ccc(O)cc1)C1(O)Oc2cc(O)cc(O)c2C1=O (stereo not drawn); target = laccase (Trametes versicolor); assay = substrate; quantity = Vmax; value = 1.86 ± 0.3 µmol/min/mg

Repeated from above:
SMILES = N=C(N)NCCC[C@H](NC(=O)[C@@H]1CCCN1C(=O)[C@H](CC(N)=O)NC(=O)[C@H](CCCNC(=N)N)NC(=O)[C@@H]1CCCN1C(=O)[C@H](CCCCN)NC(=O)[C@H](CCCCN)NC(=O)[C@H](CCC(N)=O)NC(=O)[C@H](CC(=O)O)NC(=O)[C@@H](N)Cc1c[nH]c2ccccc12)C(=O)O; target = Neuropilin-1 (NRP1, Homo sapiens, UniProt O14786); assay = binding, ITC; conditions = pH 7.4, 30 °C; quantity = TΔS; value = -10 kcal/mol
SMILES = COc1ccc(S(=O)(=O)N2CCN(CC(=O)Nc3ccc(OC)cc3OC)CC2)cc1; target = GRM4 (Homo sapiens, UniProt Q14833); assay = calcium mobilization, positive allosteric modulator; test system = CHO cells expressing Gqi5; conditions = added: glutamate EC20; quantity = EC50; value = inactive
